Published values of several laboratories.
Lines come from different studies, so protocols differ. Several values in a cell are separate wells, animals, samples, runs or records.
Cell line: RAW264.7
Mode: inhibitor
Notes: LPS-stimulated

`O=C(/C=C/CF)O[C@@H]1COC(=O)C1` gave an IC50 of 4.3 µM (NO release).
With `CC1=C(C)C(=O)O[C@@H]([C@](C)(O)[C@]2(O)CC[C@]3(O)[C@@H]4C[C@H]5O[C@]56[C@@H](O)[C@@H](O)CC(=O)[C@]6(C)[C@H]4CC[C@]23C)C1` the IC50 was 24.3 µM (NO release, Griess).
The IC50 of `CC[C@H](C)[C@H](NC(=O)OC(C)(C)C)C(=O)Oc1c(OC)ccc2c1[C@@]13CCN(C)[C@@H](C2)[C@H]1C=C(OC)C(=O)C3` is reported as 44.1 µM (NO release, Griess).
The IC50 of `CCCCn1cc(C(=O)O)c(=O)c2cc(F)c3c(nnn3-c3cccc(Cl)c3)c21` is reported as 78 µM and 77.7 µM (NO release, Griess).
With `O=C(/C=C/CBr)O[C@@H]1COC(=O)C1` the IC50 was 1.5 µM (NO release).
With `CCCCn1cc(C(=O)O)c(=O)c2cc(F)c3c(nnn3-c3ccccc3Cl)c21` the IC50 was 84 µM and 84.2 µM (NO release, Griess).
`COC1=C[C@@H]2[C@@H]3Cc4c(COC(=O)c5cnc(C)cn5)cc(OC)c(OC(=O)c5cnc(C)cn5)c4[C@]2(CCN3C)CC1=O` has an IC50 of 69.1 µM (NO release, Griess).
With `COc1ccc(-n2cc(C(=O)N3C[C@]4(OC(=O)c5ccccc5NC(C)=O)CC[C@H](OC)[C@@]56[C@@H]4C[C@@H]([C@@H]35)[C@@]3(O)C[C@H](OC)[C@H]4C[C@@H]6[C@]3(O)[C@H]4OC)nn2)cc1` the IC50 was 89.7 µM (TNF-α release, ELISA; 24 h).
With `CCCCn1cc(C(=O)O)c(=O)c2cc(F)c(Nc3cccc(Cl)c3)c(N)c21` the IC50 was 5 µM and 5.39 µM (NO release, Griess).
The IC50 of `COC1=C[C@@H]2[C@@H]3Cc4ccc(OC)c(OC(=O)[C@@H](N)CC(C)C)c4[C@]2(CCN3C)CC1=O` is reported as 69.2 µM (NO release, Griess).
With `CC(C)C1=C(OC(=O)Cc2ccccc2)C(=O)C2=C(C=C[C@H]3C(C)(C)CCC[C@]23C)C1=O` the IC50 was 9.94 µM (NO release; 24 h).

Excerpt of the above:
With `CC(C)C1=C(OC(=O)Cc2ccccc2)C(=O)C2=C(C=C[C@H]3C(C)(C)CCC[C@]23C)C1=O` the IC50 was 9.94 µM (NO release; 24 h).
